Measured values of several laboratories.
Each numbered part is a random draw from the data of one study; scales do not carry over between parts. Values joined by “and” are separate records of one study, mostly repeats; a detail may differ. Positions count from the first letter of the parent shown.
Sequence of UniProt Q16584 (whole entry, looked up): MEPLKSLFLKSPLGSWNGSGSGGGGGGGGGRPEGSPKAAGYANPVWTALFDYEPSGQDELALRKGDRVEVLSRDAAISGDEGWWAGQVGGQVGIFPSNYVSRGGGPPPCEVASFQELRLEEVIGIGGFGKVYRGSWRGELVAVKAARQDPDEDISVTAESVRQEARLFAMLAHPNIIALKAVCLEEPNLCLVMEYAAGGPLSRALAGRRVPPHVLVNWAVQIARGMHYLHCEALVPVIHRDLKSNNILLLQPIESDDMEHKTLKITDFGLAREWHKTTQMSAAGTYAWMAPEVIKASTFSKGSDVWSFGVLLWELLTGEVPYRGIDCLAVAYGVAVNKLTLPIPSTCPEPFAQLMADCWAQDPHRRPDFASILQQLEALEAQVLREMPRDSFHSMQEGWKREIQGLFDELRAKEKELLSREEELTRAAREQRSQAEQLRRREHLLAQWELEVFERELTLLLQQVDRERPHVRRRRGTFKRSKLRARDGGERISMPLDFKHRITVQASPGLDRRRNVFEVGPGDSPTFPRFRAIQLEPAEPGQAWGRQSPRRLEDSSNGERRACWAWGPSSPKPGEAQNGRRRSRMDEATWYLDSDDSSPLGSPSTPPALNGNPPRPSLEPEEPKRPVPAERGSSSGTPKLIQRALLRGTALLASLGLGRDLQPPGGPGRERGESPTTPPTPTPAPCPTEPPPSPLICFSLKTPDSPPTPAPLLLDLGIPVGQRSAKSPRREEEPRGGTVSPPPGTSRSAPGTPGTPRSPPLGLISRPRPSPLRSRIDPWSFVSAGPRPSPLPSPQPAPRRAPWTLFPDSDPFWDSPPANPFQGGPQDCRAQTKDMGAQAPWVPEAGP
Sequence of UniProt Q15349 (whole entry, looked up): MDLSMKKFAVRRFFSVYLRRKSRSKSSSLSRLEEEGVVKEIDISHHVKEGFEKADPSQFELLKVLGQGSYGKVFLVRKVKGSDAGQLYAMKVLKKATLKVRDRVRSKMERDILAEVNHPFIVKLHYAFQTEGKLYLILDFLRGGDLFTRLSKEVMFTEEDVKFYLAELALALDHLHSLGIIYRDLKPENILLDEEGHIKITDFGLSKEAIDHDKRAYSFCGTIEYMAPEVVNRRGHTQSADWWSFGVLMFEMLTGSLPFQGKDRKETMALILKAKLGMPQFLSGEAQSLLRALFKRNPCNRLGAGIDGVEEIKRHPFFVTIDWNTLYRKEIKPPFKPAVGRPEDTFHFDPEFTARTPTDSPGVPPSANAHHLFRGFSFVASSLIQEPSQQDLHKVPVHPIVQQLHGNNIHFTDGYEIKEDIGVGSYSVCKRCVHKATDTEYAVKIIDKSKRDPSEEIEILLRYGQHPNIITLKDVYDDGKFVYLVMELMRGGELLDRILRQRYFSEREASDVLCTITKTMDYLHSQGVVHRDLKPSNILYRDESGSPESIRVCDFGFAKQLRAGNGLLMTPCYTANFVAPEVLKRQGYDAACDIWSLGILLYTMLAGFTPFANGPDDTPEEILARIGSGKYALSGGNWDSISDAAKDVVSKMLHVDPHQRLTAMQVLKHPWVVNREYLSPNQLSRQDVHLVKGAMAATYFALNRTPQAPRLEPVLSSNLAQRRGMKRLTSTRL
Sequence of UniProt P68400 (whole entry, looked up): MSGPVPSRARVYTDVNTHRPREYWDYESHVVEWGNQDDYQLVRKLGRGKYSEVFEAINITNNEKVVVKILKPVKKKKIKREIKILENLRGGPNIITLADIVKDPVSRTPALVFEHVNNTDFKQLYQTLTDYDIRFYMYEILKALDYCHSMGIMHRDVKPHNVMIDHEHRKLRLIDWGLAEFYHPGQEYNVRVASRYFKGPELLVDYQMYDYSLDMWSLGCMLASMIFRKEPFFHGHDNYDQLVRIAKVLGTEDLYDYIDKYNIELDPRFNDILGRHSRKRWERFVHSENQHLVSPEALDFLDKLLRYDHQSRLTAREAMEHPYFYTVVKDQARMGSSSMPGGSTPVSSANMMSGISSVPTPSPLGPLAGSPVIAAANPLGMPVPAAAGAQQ
Sequence of UniProt Q13523 (whole entry, looked up): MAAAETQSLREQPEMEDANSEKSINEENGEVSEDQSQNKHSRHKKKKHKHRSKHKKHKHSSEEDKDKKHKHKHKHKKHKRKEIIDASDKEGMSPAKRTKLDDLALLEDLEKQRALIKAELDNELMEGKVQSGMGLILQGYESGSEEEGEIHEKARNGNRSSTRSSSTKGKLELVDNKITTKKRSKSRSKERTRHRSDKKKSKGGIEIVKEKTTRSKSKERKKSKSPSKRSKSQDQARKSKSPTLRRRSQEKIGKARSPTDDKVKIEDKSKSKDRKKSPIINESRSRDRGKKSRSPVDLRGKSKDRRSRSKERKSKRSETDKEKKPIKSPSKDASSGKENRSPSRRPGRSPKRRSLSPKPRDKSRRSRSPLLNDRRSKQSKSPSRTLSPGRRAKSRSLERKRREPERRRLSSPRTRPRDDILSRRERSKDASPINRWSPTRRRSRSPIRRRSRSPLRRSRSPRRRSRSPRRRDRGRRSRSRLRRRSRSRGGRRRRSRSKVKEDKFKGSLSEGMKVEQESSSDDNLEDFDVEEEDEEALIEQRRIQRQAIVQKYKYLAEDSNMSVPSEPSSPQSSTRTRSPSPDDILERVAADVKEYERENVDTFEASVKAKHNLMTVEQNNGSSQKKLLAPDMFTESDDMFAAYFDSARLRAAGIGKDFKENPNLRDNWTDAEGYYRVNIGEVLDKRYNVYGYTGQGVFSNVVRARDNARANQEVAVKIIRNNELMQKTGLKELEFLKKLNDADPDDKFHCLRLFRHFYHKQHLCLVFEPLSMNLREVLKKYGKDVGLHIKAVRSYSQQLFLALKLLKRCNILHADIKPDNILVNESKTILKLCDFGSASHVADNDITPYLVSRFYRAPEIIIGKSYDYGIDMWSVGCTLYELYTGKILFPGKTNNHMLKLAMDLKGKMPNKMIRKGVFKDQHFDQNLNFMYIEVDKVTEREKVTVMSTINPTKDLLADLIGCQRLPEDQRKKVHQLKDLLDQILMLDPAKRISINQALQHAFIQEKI
Sequence of UniProt P50750 (whole entry, looked up): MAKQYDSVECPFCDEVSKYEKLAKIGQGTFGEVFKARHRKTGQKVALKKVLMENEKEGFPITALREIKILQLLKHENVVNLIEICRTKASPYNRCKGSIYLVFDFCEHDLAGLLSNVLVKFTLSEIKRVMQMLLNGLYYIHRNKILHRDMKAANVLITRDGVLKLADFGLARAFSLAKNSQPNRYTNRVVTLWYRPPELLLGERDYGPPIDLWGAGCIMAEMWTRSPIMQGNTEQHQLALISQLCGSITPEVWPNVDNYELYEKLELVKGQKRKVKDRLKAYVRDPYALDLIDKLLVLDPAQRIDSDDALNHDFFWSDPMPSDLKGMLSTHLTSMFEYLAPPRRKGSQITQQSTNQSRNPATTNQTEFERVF
Sequence of UniProt P54756 (whole entry, looked up): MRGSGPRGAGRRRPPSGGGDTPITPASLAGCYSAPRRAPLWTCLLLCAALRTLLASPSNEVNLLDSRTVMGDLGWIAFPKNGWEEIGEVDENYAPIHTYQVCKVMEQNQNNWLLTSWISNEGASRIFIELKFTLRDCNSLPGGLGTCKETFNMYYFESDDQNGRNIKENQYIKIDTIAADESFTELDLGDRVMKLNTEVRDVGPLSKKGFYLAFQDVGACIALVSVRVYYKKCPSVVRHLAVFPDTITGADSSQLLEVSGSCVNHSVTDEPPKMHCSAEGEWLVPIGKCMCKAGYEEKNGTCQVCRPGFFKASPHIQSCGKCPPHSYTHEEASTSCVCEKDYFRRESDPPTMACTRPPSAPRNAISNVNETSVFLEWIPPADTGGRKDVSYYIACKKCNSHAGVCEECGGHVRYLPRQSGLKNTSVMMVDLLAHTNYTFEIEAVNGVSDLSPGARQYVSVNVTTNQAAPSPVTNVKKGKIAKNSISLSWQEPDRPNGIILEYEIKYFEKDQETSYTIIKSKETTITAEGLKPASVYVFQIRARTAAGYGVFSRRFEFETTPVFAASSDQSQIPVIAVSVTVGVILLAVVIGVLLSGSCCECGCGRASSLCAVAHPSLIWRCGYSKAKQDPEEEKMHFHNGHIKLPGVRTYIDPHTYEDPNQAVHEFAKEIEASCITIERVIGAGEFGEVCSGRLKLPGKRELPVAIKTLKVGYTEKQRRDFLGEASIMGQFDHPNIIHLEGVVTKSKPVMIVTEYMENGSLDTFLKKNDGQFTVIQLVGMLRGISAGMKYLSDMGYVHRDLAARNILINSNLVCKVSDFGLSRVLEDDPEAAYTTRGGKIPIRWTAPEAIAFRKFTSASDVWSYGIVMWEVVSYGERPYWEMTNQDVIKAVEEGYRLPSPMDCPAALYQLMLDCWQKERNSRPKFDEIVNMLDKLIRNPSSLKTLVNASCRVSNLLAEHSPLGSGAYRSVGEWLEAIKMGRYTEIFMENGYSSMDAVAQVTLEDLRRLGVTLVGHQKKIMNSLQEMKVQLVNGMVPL
Sequence of UniProt Q9NWZ3 (whole entry, looked up): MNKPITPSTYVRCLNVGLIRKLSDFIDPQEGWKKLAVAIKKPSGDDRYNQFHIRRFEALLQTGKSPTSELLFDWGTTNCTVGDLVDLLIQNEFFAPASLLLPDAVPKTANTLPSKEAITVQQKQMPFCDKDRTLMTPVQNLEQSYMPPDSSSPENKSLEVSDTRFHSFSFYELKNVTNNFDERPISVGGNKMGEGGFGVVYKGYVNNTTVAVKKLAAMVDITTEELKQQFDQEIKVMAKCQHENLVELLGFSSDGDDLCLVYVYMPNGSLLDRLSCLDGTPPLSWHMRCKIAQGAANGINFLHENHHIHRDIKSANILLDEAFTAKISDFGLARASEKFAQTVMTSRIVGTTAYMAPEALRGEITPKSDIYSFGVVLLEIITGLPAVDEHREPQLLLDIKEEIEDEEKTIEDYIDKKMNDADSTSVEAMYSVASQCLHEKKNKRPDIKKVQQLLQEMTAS

Set 1
Target: CRIPT, C-terminal peptide
Technique: DHFR complementation, deep sequencing
Matrix: yeast
Setting: single substitutions, model-inferred values
Relative to: wild type
Reading: higher = weaker binding
Endpoint: binding free energy change
Parent: ERBIN, PDZ domain 1 (human); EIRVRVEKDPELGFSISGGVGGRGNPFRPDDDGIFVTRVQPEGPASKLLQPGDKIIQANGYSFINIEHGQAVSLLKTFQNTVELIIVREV; partner TKNYKQTSV
E42K: 0.1 kcal/mol
G22Q: -0.306 kcal/mol
V82P: 0.962 kcal/mol
E83F: 0.179 kcal/mol
N59I: 0.892 kcal/mol
I64L: -0.0219 kcal/mol
T81R: 0.0395 kcal/mol
D32W: 0.372 kcal/mol

Set 2
Structure (SMILES): O=C1NC(=O)/C(=C/c2ccc3c(c2)OC(F)(F)O3)S1
Read-out: enzyme activity
Mode: inhibitor
Tested at: 0.5 µM
Relative to: control
Endpoint: remaining activity
Cyclin-dependent kinase 9, with cyclin T1 (CDK9, Homo sapiens, UniProt P50750): 98.7%
Ephrin type-A receptor 5 (EPHA5, Homo sapiens, UniProt P54756): 100%
Serine/threonine-protein kinase 38 (STK38, Homo sapiens, UniProt Q15208): 107%
Tyrosine-protein kinase Lyn (LYN, Homo sapiens, UniProt P07948): 99.9%
Interleukin-1 receptor-associated kinase 4 (IRAK4, Homo sapiens, UniProt Q9NWZ3): 99.2%
Casein kinase II subunit alpha (CSNK2A1, Homo sapiens, UniProt P68400): 22.6%

Set 3
SMILES: CNCc1ccccc1-c1csc([C@@H](C)Nc2nc(C)nc3cc(OC)c(OC)cc23)c1
Read-out: cell-free assay
Technique: competition with immobilised ligand
Tested at: 1 µM
Endpoint: remaining binding
Myotonin-protein kinase (DMPK, Homo sapiens, UniProt Q09013): 86%
Tyrosine-protein kinase ABL1, phosphorylated (ABL1, Homo sapiens, UniProt P00519, Q252H): 85%
Epidermal growth factor receptor (EGFR, Homo sapiens, UniProt P00533, L858R): 82%
Receptor-type tyrosine-protein kinase FLT3 (FLT3, Homo sapiens, UniProt P36888, D835Y): 84%
Mast/stem cell growth factor receptor Kit (KIT, Homo sapiens, UniProt P10721): 100%
Cyclin-dependent kinase 2 (CDK2, Homo sapiens, UniProt P24941): 82%
Serine/threonine-protein kinase PRP4 homolog (PRPF4B, Homo sapiens, UniProt Q13523): 96%
Serine/threonine-protein kinase WNK2 (WNK2, Homo sapiens, UniProt Q9Y3S1): 72%
Mitogen-activated protein kinase kinase kinase 11 (MAP3K11, Homo sapiens, UniProt Q16584): 99%
Ribosomal protein S6 kinase alpha-2, C-terminal kinase domain (RPS6KA2, Homo sapiens, UniProt Q15349): 100%
Bone morphogenetic protein receptor type-1B (BMPR1B, Homo sapiens, UniProt O00238): 83%
Receptor-type tyrosine-protein kinase FLT3 (FLT3, Homo sapiens, UniProt P36888, N841I): 77%
Receptor-type tyrosine-protein kinase FLT3 (FLT3, Homo sapiens, UniProt P36888, D835H): 55%
Serine/threonine-protein kinase mTOR (MTOR, Homo sapiens, UniProt P42345): 100%
MAP kinase-activated protein kinase 5 (MAPKAPK5, Homo sapiens, UniProt Q8IW41): 88%

Set 4
Compound: CN(C(=O)c1ccn2ncc(-c3ccc(C(N)=O)cc3)c2c1)c1ccc(C#N)cn1
Organism: Cryptosporidium parvum
Technique: time-kill
Cell line: HCT-8
Strain: nanoluciferase-expressing
Reading: higher = more parasites
Endpoint: parasite luminescence
0.2469 µM, 24 h: 99200 RLU and 84600 RLU
6.667 µM, 48 h: 29700 RLU and 21900 RLU
0.00305 µM, 24 h: 233000 RLU and 218000 RLU
2.222 µM, 4 h: 94500 RLU and 107000 RLU

Set 5
Cell line: A-375
Tested at: 100 µM
Time: 60 h
Endpoint: viability
CC(C(=O)O)c1ccc2c(c1)Cc1cccnc1O2 (stereo not shown): 25.7%
C[C@H](CCC(=O)O)[C@H]1CC[C@H]2[C@@H]3[C@@H](O)C[C@@H]4C[C@H](O)CC[C@]4(C)[C@H]3CC[C@]12C: 95%
CC(N)CCCC(C)(C)O (stereo not shown): 76.2%

Further values, each from its own experiment
COc1ccc(-c2c(Nc3ccccn3)[nH]c3c(C4=CCCCC4)c(-c4ccccc4)nn3c2=O)cc1
dose-normalised AUC(0-inf) observed (LC-MS/MS non-compartmental; human, plasma; 200 mg twice daily, cycle 1): 11300 ng·h/mL/mg
